Published values pooled from the literature.
Each numbered part is a random draw from the data of one study; scales do not carry over between parts. Positions count from the first letter of the parent shown.

Set 1
Target: Ras GTPase-activating protein-binding protein 1, RRM domain (G3BP1, Homo sapiens, UniProt Q13283)
Sequence of UniProt Q13283 (whole entry, looked up): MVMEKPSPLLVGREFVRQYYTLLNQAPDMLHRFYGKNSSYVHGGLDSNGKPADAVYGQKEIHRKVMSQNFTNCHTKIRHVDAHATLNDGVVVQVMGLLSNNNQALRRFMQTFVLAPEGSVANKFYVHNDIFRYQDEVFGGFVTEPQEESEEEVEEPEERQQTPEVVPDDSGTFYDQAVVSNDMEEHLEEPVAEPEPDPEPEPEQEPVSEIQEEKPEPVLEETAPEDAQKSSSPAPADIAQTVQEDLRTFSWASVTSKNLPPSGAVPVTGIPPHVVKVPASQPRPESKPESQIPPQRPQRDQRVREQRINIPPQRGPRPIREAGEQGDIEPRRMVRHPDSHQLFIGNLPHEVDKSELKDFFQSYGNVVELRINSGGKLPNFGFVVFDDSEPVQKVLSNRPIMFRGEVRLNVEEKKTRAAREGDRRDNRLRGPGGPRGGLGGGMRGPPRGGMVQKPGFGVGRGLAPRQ
Technique: RNA Bind-n-Seq
Form: RNA
Medium: in vitro
Tested at: 1 µM
Notes: whole 134-nt RNA, ends assumed
Together with: 150 mM KCl
Relative to: input library
Direction: higher = stronger binding
Oligonucleotide | log2 enrichment
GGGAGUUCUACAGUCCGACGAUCACCAUGCAGGUGGGCAUCUUUGGGAAGUGGGGCAAGGGGGGGAUAGGGAGGGGGGUAACACUUUGGGAACAGGUGGUCCCAGGUUGUUUCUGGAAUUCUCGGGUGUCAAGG | 1.06
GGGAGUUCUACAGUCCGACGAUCUCCUGUGCUACACAUCGUAUGUACCGAAUCGGAAAAAAGGAAAAAAGGGGAAAAAAGGGAAAGUAUUAUGUUACGCCGUUCGGAUCUGCAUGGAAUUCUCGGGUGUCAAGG | -0.0598
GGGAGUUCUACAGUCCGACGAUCUGUCGGGGCCAAAGUGGUAACGAACGCCCGCAGCCCGGGGGCUCGAUGCUAUGGAUUCGUCACCAUGUCGACAUCUGACGAGGCGACCAAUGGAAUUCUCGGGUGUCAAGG | -0.601
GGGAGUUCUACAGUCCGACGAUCCAAGUCCUGUGCUACACAUCGUAUGUACCGAAUCGGCCCGGGGCCCGGGCCCGGGAAAGUAUUAUGUUACGCCGUUCGGAUCUGCACUUCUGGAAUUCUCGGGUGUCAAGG | -0.699
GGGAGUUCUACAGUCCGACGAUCCUCAAGUCCUGUGCUACACAUCGUAUGUACCGAAUCGGGGCCGGGCCGGCCGGAAAGUAUUAUGUUACGCCGUUCGGAUCUGCACUUCCAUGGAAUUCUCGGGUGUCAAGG | -0.419
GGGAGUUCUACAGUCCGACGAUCACCAUGCAGGUGGGCAUCUUUGGGAAGUGGGGCAAGGGGGGGAUAGGGAGGGGGGUAACACUUUGGGAGCAGGUGGUCCCAGGUCGUUUCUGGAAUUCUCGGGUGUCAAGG | 0.827
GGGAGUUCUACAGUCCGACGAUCUCCUGUGCUACACAUCGUAUGUACCGAAUCGGGGAAAAAGGGGUUUGGGGAAAAAGGGGAAAGUAUUAUGUUACGCCGUUCGGAUCUGCAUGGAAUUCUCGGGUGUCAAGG | 0.985
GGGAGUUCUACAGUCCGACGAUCUCCUCAAGUCCUGUGCUACACAUCGUAUGUACCGAAUCGGGCGGGCGGCGGAAAGUAUUAUGUUACGCCGUUCGGAUCUGCACUUCCAGCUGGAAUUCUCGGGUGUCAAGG | -0.152
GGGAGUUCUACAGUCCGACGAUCAGUCCUGUGCUACACAUCGUAUGUACCGAAUCGGGAAAAAGGGUGGGAAAAAAAGGGAAAGUAUUAUGUUACGCCGUUCGGAUCUGCACUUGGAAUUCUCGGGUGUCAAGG | 0.466

Set 2
Target: Histone acetyltransferase KAT6A, both winged helices, GST fusion (KAT6A, Homo sapiens, UniProt Q92794, residues 1-181)
Technique: protein binding microarray
Form: double-stranded DNA, one strand shown
Medium: in vitro
Tested at: not given
Notes: 8-mer, flanks averaged, mean of 2 arrays, mostly near background
Relative to: not given
Direction: higher = stronger binding
Construct (chain): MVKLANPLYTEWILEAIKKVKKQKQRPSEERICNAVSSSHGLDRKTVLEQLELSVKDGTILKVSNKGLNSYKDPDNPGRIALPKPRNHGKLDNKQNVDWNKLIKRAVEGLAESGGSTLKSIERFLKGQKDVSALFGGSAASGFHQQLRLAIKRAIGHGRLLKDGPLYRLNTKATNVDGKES
Oligonucleotide | E-score
ACTTCGGC | 0.0309
CATTGCCC | -0.0656
ACTCTTTG | -0.115
AAATGTCG | 4.5e-05
GGGCTAGA | -0.03
GCCCAAAA | -0.147
GACGATTA | 0.0711
ATTGCTCG | -0.0849
CACATCAG | -0.199
ACACCGAA | -0.0448
CCCATCGC | 0.106
TAGTTCGA | -0.129
CTAAGATC | 0.102
AGATTCCC | 0.0542
AAAACAGT | 0.0618
GCGGAACC | 0.267
CGGACGTA | 0.193
AATTGGAA | -0.0357
CCAGAAAA | -0.307
GACAGCTC | -0.052
AACAAGAT | -0.0593
AGATGAGC | -0.0433
GCTAGTAA | 0.026
CCACGACG | 0.02
ATCTCACC | 0.0057

Set 3
Target: CCNB2, cyclin fold, Cln2 fusion (human)
Technique: yeast growth competition, sequencing
Medium: yeast
Notes: weak parent motif
Relative to: not given
Direction: higher = stronger binding
Starting sequence: CDC25A docking peptide (human); PPHRRRLLFACSP; partner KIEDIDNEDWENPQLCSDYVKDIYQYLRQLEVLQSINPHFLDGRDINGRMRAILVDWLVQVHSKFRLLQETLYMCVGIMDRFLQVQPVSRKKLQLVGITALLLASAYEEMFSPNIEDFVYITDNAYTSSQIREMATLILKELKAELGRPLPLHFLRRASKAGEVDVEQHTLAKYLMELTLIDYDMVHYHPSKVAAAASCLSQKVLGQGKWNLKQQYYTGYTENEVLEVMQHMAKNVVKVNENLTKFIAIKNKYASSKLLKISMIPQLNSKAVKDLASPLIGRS
Variant | normalised enrichment score
L8W | 0.801
A10Y | -0.0368
P2L | 0.49
P13M | -0.0786
C11S | 0.663
L8A | 0.584
C11L | 0.633
C11N | 0.109
P1Y | 1.06
P1T | 0.609
R4M | 0.459
L7W | 0.43
P2G | 0.839
L8N | 0.256
R4E | -0.332
P1K | 0.853
S12M | 0.727
S12D | 0.337
A10M | 0.477
F9W | 0.445
F9D | -0.0633
S12N | 1.03
L7T | 0.914
H3Q | 0.324
P2Y | 0.667

Set 4
Target: RNA binding protein fox-1 homolog 2, RRM domain, GST-SBP tag (RBFOX2, Homo sapiens, UniProt O43251-10, residues 100-194)
Technique: RNA Bind-n-Seq
Form: RNA
Medium: in vitro
Tested at: 365 nM
Notes: natural RNA segment, single round, ends assumed
Relative to: no-protein control
Direction: higher = stronger binding
Construct (chain): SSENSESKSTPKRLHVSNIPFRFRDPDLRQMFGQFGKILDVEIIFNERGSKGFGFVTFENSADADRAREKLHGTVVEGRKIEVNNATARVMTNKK
Oligonucleotide | RBNS enrichment (R)
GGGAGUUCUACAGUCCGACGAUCCUCGUUUUUCACGCUGGCUUUGUUUCAGAGGUAUACUGACUCCAGUGGUGUCAGGAUGAGGUGGCCCCUGGCUUUCUGGUUCACAACAAGCUAGAGAUUUUCAAAGCUACUGGAAUUCUCGGGUGCCAA | 0.324
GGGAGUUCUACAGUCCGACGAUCAGUGGACACAUUAGUAAUGGUUAUGGGAGUAAUACAGAGAAAGAGGUGAGUGGAGACUCAGCCCAGCUGCUCUUGAGCUUGGAUAGUUAUACAUUUUGGUGACUUCUGACUGGAAUUCUCGGGUGCCAA | 0.337
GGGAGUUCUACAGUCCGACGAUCAACCCUGCAGGCCUCAUCUUUCCCAAAACCCACUUUGUCUUGGUGGGAGUGGGUCCGCGCUGCUCUGCAGCAGGGGCUGGGGAGUGGACAGCAUCAGGUGGGAAAGUGGAUGGAAUUCUCGGGUGCCAA | 0.493
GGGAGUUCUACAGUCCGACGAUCAGUUGUACGCCCAGGCAACAAGGGCUGAGCUGCGCUUGCGUGGCUGUUUCAUGACCGCUUGUUUUUCUCCUUUUGGUGUAAUGUUUUACAAAUCCUUUGGCCUGAGAACUUGGAAUUCUCGGGUGCCAA | 0.365
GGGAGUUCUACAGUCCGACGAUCUGGAACAGAGUCCCCAGAACUCAUGUGGCCAUUUCCGCCAGCAUCACUCCCCGGUGCCUAUGGGGUCCCGGUGUACCUAAAGGGAGAAGGACCCCAUGUGCUAGCCAGAAUGGAAUUCUCGGGUGCCAA | 0.323
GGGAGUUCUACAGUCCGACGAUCGAGAUGUGUGUUUGACUGUGAGAGAGUGUGUGUUUGUGUGUGUGUUUUGCCAUGAACUGUGGCCCCAGUGUAUAGUGUUUCAGUGGGGGAGAAGCUGAAAGACCAAGACUUGGAAUUCUCGGGUGCCAA | 2.11
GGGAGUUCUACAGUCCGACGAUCAAUUCCCAACAAACAUUGAUGCUGACAGUCAUGCAGUCUGGGAGUGGGGAAGUGAUCUUUUGUUCCCAUCCUCUUCUUUUAGCAGUAAAAUAGCUGAGGGAAAAGGGAGGUGGAAUUCUCGGGUGCCAA | 0.354
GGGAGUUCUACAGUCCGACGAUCGCCUGGGUGUCCUCACAGUUCUAUAACAAGUGACUUGCUCCUUAGGGGAUGUUUGCCUUUAAGGUUUUAUACUUUGUUUGGUUUGGAAAGAUGCUUUAAAUUAAAUUUGGUGGAAUUCUCGGGUGCCAA | 0.395
